Measured values of several laboratories.
Lines come from different studies, so protocols differ.
Target: Cannabinoid receptor 1 (CNR1, Homo sapiens, UniProt P21554)
Sequence of UniProt P21554 (whole entry, looked up): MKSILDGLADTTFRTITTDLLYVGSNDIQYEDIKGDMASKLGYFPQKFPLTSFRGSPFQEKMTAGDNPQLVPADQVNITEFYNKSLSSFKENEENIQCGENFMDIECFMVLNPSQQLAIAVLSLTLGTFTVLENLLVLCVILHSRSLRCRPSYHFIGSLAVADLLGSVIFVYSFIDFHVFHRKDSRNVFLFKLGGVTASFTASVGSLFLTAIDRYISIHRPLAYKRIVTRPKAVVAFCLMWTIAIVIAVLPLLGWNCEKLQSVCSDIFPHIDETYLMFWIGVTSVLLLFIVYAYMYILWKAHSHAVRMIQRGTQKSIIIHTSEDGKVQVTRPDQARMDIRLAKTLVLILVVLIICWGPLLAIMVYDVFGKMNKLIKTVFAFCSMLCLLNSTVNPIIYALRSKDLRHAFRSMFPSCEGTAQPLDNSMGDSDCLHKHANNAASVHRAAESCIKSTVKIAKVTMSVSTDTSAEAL
Technique: radioligand

For `CC1=C[C@H]2c3c(O)cc(CCc4ccccc4)cc3OC(C)(C)[C@@H]2CC1`, the Ki was 127 nM (ligand displacement; cell membranes).
`CCCCCn1cc(C(=O)Cc2ccccc2OC)c2ccccc21` has a Ki of 110 nM (ligand displacement; cell membranes).
With `CN1CCCCC1Cn1c2ccccc2c2cc(C(=O)c3cccc4ccccc34)ccc21` (stereo not drawn) the Ki was 100 nM (ligand displacement; cell membranes).
`CCOC(=O)[C@](CC)(CCCSCCOCCOCCNc1ccc([N+](=O)[O-])c2nonc12)NC(=O)c1ccc(C2CC2)c(Cc2ccc(F)cc2)n1` has a Ki of 617 nM (ligand displacement; cell membranes).
With `O=C(c1cccnc1)c1cn(CCCCCF)c2ccccc12` the Ki was 8.73 nM (ligand displacement in cells).
The Ki of `CCOC(=O)C(CC)(CC)NC(=O)c1ccc(N2CC(OC)C2)c(OC[C@H]2C[C@@H]2CO)n1` is reported as 721 nM (ligand displacement; cell membranes).
`CCCCCn1cc(C(=O)c2cccc3ccccc23)c2ccccc21` gave a Ki of 4.44 nM (ligand displacement in cells).
`CCCCCn1cc(C(=O)c2ccc(CC)c3ccccc23)c2ccccc21` gave a Ki of 26 nM (ligand displacement; cell membranes).
`CC(=O)OCCCCCn1c2ccccc2c2cc(C(=O)c3cccc4ccccc34)ccc21` has a Ki of 178 nM (ligand displacement; cell membranes).
`O=C(NC12CC3CC(CC(C3)C1)C2)c1cn(CCCCCF)c2ccccc12` has a Ki of 44.6 nM (ligand displacement in cells).
The Ki of `O=C(c1ccc2c(c1)c1ccccc1n2CCN1CCCCC1)c1cccc2ccccc12` is reported as 28.2 nM (ligand displacement; cell membranes).
For `O=C(c1ccccc1I)c1cn(CCCCCF)c2ccccc12`, the Ki was 14.7 nM (ligand displacement in cells).

Some of these lines once more:
For `CC1=C[C@H]2c3c(O)cc(CCc4ccccc4)cc3OC(C)(C)[C@@H]2CC1`, the Ki was 127 nM (ligand displacement; cell membranes).
